# Published values collected from several papers.
# Parts stem from different laboratories: compare values within a part only. Positions count from the first letter of the parent shown.

# Set 1
# Target: UBE2V1 UBC core domain (UniProt Q13404)
# Technique: yeast two-hybrid
# Matrix: yeast
# Setting: mostly zero background
# Baseline: not given
# Direction: higher = stronger interaction
# B1: ZNRF4 RING domain (UniProt Q8WWF5); chain VRTFTWHNDLCAICLDEYEEGDQLKILPCSHTYHCKCIDPWFSQAPRRSCPVCKQSVAATEDSF
# B2: RUFY1 RING domain (UniProt Q96T51); chain QALKGHAWLKDDEATHCRQCEKEFSISRRKHHCRNCGHIFCNTCSSNELALPSYPKPVRVCDSCHTLLLQRCSSTAS
# B3: MARCHF1 RING domain (UniProt Q8TCQ1); chain TAPRSQSRLSVCPSTQDICRICHCEGDEESPLITPCRCTGTLRFVHQSCLHQWIKSSDTRCCELCKYDFIMETKLKPLRKWE
# B4: RNF182 RING domain (UniProt Q8N6D2); chain AESQASDELECKICYNRYNLKQRKPKVLECCHRVCAKCLYKIIDFGDSPQGVIVCPFCRFETCLPDDEV
# B5: RNF186 RING domain (UniProt Q9NXI6); chain HSGSTECDLECLVCREPYSCPRLPKLLACQHAFCAICLKLLLCVQDNTWSITCPLCRKVTAVPGGLI
# Residues (chain): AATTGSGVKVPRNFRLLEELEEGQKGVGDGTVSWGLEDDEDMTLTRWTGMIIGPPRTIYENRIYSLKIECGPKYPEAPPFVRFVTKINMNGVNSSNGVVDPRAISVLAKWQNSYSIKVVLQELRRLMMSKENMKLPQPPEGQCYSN
Molecule,lacZ reporter activity
ASPKIFQKTKCSICNSALELPSVHFLCGHSFHQHCFESYSESDADCPTCLPENRKVMDMI (VPS11 RING domain (UniProt Q9H270)),0
B1 (ZNRF4 RING domain),0
B2 (RUFY1 RING domain),0
LEALSSDFLACKICLEQLRAPKTLPCLHTYCQDCLAQLADGGRVRCPECRETVPVPPEGV (TRIM56 RING domain (UniProt Q9BRZ2)),0
B3 (MARCHF1 RING domain),0
EIKEYKARLTCPCCNTRKKDAVLTKCFHVFCFECVRGRYEARQRKCPKCNAAFGAHDFHR (RNF40 RING domain (UniProt O75150)),0
ASEEEFQFLRCQQCQAEAKCPKLLPCLHTLCSGCLEASGMQCPICQAPWPLGADTP (PML RING domain (UniProt P29590)),0
B4 (RNF182 RING domain),0
B5 (RNF186 RING domain),0

# Set 2
# Target: RING finger protein unkempt homolog, zinc fingers 1-6, GST-SBP tag (UNK, Homo sapiens, UniProt Q9C0B0, residues 30-357)
# UniProt Q9C0B0, sequence (30-357, looked up): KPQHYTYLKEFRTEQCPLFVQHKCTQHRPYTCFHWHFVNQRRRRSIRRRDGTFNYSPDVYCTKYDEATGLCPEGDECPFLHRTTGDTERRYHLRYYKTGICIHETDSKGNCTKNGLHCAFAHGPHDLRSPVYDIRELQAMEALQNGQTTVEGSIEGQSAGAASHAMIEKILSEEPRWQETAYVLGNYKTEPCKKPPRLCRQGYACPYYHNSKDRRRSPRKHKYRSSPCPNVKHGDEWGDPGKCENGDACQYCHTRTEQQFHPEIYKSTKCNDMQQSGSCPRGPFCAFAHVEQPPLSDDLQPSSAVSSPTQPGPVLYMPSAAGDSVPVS
# Technique: RNA Bind-n-Seq
# Form: RNA
# Matrix: in vitro
# Concentration: not given
# Setting: RNA with constant flanks, human and mouse sites, ends assumed
# Baseline: input RNA pool
# Direction: higher = stronger binding
Oligonucleotide,bound/input enrichment
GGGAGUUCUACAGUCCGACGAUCGAAUAUAUAGGUGAAGAAGAAGCUACAUUAGUUGAUUUUGUUUGUUCUAAGGUUAUGGCUCAUAGUUCACCCCAGAGCAUUUUAGAUGAUGUUGCCAUGGUACUUGAUGAAGAAGCAGAACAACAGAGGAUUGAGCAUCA,3.39 ratio
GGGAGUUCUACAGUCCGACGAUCAUUGUGAAAAAGCUGCCUAUUGUUGAAACUCUGGGCUGCUGUAAUGUGAUUUGUUCAGAUAAAACUGGAACACUGACGAAGAAUGAAAUGACUGUUACUCACAUAUUUACUUCAGAUGGUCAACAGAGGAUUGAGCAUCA,0.116 ratio
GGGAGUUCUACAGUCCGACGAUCAUCAAUGCUGUGGUCCUGCUGAUCCUGCUGAGUGCCCUGGCAGAUCCCAAUCAGUAUCACUUUUCAGGCUCUGAACUAGGAGGGGAGUUUGAGUUCAUGGAUGAUGCCAACAUGUGCAUUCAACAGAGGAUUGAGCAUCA,0.32 ratio
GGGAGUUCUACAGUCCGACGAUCAAUUUUCCUCAUCUUGUAGUCGAAAAAAUUCUUGUAAGUCUCACUAUGAAAAACUCAAAAGCUGCAAUGAAGUUUUUUCAAAGUGUGCCAGAAUGUGAACAACACUGCGAAGAUAAAGAACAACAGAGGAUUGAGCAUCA,0.279 ratio
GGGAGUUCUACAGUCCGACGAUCAGGCAUGAGCUCUUGGCAGGAGUGGGCUCUGAGCAGGUGUCAUAUUCAUUCUUUACAAACCAUAGAGAAAUAAUUUCAUCCCCCAACUGUAGUAAUUGUUACAAUUUUAUAUAAAAAAUUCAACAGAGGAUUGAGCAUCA,20.7 ratio
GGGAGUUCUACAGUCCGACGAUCGUACAGUUAACCGUGCAGUACAGAAUGAACAGUAAAAUUAUGUCCUUAAGUAAUAAGCUGACCUAUGAGGGCAAGCUGGAGUGUGGAUCAGACAAAGUGGCCAAUGCAGUGAUAAACCUACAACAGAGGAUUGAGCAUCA,0.409 ratio
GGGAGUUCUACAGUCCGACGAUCGGGGUUCAGGGUGAGGAGAGCGCGGAGGGACUGUGUCCCAGUUGGUGGUGUGUGGGGUCUAUUAGUCUCAUCCAUGUCUGUUUGUCCUCAGCCCUGAGGUGCGCACCGAUAUCGAUAUUCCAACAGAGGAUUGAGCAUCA,0.216 ratio
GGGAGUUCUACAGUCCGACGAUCACUGUCUGUUAUCUUCCUUGCUUCCCAUCGCUGCCUUUGAUUCUGUAAGAGGGGUUUUUUUUUUUUCUCUUUCCCCAACAAGGGUUUGGAUGAUAUGAGAUUUAUUUAUUUAUUCGCUGACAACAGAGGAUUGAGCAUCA,0.522 ratio
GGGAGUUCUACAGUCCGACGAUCUAUACAUUUGUCUAACUUUGUGGUAAGUGAUCUGAAUUUUAUGUUAGGGUUAGGAUAUUUUUGUGAAACAUGGAUAUUUUUUUUUUGGUAAUUAUAUAAUUGAGAGUUUGGAAUGAAAUCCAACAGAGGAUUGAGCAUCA,13.8 ratio
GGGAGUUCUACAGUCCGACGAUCCACCCUACAGUGGGUGCAGGCGUGCUUCACAUCACUGAAAAUGGGCCAACUGAAGUGGACUACAGUCCUUCUGACAUGCAGGACUCCAGUUUAUCACAUAAGAUACCACCUAUGGAGGAGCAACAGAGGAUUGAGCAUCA,0.136 ratio
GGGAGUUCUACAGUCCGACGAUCGGAAAAAACAGCCUAUCUGUACUUUCACCGAAAAUUGGAAAUUUGCUAUUUCUUUCCUACUUAGAUGUAAAAGGUAAUCACUUUGAAAUCCUCCCUCCUGAACUGGGUGACUGUCGGGCUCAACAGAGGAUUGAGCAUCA,1.08 ratio

# Set 3
# Target: CREB3L2, bZIP domain (human)
# Technique: DHFR protein complementation
# Matrix: yeast
# Setting: single substitutions, most at no-binding floor
# Baseline: wild-type JUN-FOS pair
# Direction: higher = stronger binding
# Parent: JUN, bZIP domain (human); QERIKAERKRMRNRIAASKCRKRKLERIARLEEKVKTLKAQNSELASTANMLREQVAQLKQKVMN; partner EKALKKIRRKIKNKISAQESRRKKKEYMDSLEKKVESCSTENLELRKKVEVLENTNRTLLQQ
Variant,binding fitness
A29V,-1.56 natural log
K39T,-1.37 natural log
K39L,-1.39 natural log
R30M,-1.43 natural log
E54G,-1.49 natural log
E33S,-1.54 natural log
E54W,-1.5 natural log
I28Q,-1.5 natural log
A46R,-1.31 natural log
E32Y,-1.41 natural log
E44K,-1.48 natural log
A57T,-1.37 natural log
V35L,-1.34 natural log
N42R,-1.48 natural log

# Set 4
# Target: CCNA1, cyclin fold, Cln2 fusion (human)
# Technique: yeast growth competition, sequencing
# Matrix: yeast
# Setting: weak parent motif
# Baseline: not given
# Direction: higher = stronger binding
# Parent: MASTL docking peptide (human); PMIAKNLMCELDE
Variant,normalised enrichment score
K5H,-0.121
E10Q,0.495
D12P,-0.0592
M8N,-0.079
C9H,-0.246
A4K,0.685
A4L,-0.243
M8D,0.157
M8I,0.117
M2A,-0.328
D12N,0.298
L11G,0.166
I3W,0.145
D12C,0.162

# Set 5
# Target: Sal-like protein 4, full length isoform B (SALL4, Homo sapiens, UniProt Q9UJQ4-2, residues 1-616)
# Technique: universal PBM
# Form: double-stranded DNA, one strand shown
# Matrix: in vitro
# Concentration: not given
# Setting: 8-mer, flanks averaged, mean of replicates
# Direction: higher = stronger binding
Oligonucleotide,E-score
ATAATCCG,0.242
ACTATTGC,0.229
ACCAGCAA,0.0207
ATCTGTAA,0.147
ACTGGACA,-0.106
AAAAAGTC,-0.0135
AGGGTACT,-0.112
GAGGATGA,-0.00454
GACTTTAC,-0.039
CAATTGCG,-0.0952
GGATGACC,-0.31
GGAAGACA,0.112
CAACAATA,0.337
AAGTAAAC,0.194
GGCCAGGA,-0.236
AGTGTAGC,-0.114
CGGAACCC,-0.261
CCCGTCCA,-0.118
CATGTGAC,0.145
CCGATTTC,-0.213
ATGGGGTG,-0.14
AAAATATG,0.398
TGACAAAA,0.258

# Set 6
# Target: ABI1, truncated, D143A, DHFR fusion (Arabidopsis thaliana)
# Technique: DHFR PCA, deep sequencing
# Matrix: yeast
# Setting: methotrexate growth selection, single substitutions
# Added: (+)-ABA 0 µM
# Baseline: wild-type fitted maximum
# Direction: higher = stronger binding
# Parent: PYL1, truncated, DHFR fusion (Arabidopsis thaliana); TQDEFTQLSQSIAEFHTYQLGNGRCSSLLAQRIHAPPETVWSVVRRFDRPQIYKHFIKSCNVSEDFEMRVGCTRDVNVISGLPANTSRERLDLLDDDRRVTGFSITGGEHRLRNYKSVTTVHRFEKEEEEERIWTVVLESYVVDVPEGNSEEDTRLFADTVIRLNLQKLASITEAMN
Variant,relative binding score [%]
I79H,19.6
V137Q,0.197
S26C,16.6
E147L,6.3
L164D,4.69
E64C,10.9
S140P,9.93
N77D,36.9
V143I,-4.91
E147I,5.18
Q7V,21.5
I172W,1.43
E174I,-4.48
E127W,8.21
T119I,-0.165
H34W,5.58
T6P,43.3
Y115L,0.41
F124A,7.26
R113F,-4.07
